# Measured values collected from several papers.
# Parts stem from different laboratories: compare values within a part only.

# Series 1
# Target: Ras GTPase-activating protein-binding protein 1, full length (G3BP1, Homo sapiens, UniProt Q13283)
# UniProt Q13283, sequence (whole entry, looked up): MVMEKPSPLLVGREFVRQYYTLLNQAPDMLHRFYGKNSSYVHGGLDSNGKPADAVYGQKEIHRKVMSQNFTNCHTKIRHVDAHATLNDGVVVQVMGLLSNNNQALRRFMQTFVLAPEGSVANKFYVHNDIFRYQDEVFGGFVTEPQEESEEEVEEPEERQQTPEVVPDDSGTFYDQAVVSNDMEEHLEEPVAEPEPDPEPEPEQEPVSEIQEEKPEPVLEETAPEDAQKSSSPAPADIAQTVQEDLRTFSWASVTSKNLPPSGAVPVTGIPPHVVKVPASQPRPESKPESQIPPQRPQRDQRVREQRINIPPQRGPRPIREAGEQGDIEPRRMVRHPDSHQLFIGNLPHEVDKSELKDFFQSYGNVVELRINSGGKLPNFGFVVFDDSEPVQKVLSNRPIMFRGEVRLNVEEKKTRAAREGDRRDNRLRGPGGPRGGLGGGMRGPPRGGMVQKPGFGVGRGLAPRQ
# Technique: RNA Bind-n-Seq
# Molecule type: RNA
# Matrix: in vitro
# Concentration: 200 nM
# Notes: whole 134-nt RNA, ends assumed
# Together with: 150 mM LiCl
# Baseline: input library
# Direction: higher = stronger binding
# Library: 7-deaza-guanosine replaces G
Oligonucleotide,log2 enrichment
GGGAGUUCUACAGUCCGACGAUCCUGUGCUACACAUCGUAUGUACCGAAUCGGGGUUUUUUUGGGGUUUUUUUGGGUUUUUUUGGAAAGUAUUAUGUUACGCCGUUCGGAUCUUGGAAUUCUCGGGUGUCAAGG,1.64
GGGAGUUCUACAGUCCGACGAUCUAACUUUAGAGGAGGAUCUGAUGGAUAUGGCAGUGGACGUGGAUUUGGGGAUCGCUAUAAUGGGUAUGGAGGAGGACCUGGAGGUGGCAAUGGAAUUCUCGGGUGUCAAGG,-0.41
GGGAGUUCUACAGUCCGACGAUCAGUCCUGUGCUACACAUCGUAUGUACCGAAUCGGGUUUUUGGGUGGGUUUUUUUGGGAAAGUAUUAUGUUACGCCGUUCGGAUCUGCACUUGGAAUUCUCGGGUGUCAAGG,-0.724
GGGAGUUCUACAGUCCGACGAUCGCAGGAAGUAAAAACAAAUGGAAAUGCUUCGGAUAGUGGCAGGGGUGGGGGUUGCUAAGGAAAGGGUGGGAUGGGAGUGGGUUAAGAGUUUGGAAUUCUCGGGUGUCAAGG,0.111
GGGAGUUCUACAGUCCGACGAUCACCAUGCAGGUGGGCAUCUUUGGGAAGUGGGGCAAGGGGGGGAUAGGGAGGGGGGUAACACUUUGGGAACAGGUGGUCCCAGGUCGUUUUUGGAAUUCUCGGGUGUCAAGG,0.177
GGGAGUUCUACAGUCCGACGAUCUCCUGUGCUACACAUCGUAUGUACCGAAUCGGGGAAAAAGGGGUUUGGGGAAAAAGGGGAAAGUAUUAUGUUACGCCGUUCGGAUCUGCAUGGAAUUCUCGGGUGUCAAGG,-0.991
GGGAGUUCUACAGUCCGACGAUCCAAGUCCUGUGCUACACAUCGUAUGUACCGAAUCGGAAAAAGGAAAAAAAGGAGGAAAGUAUUAUGUUACGCCGUUCGGAUCUGCACUUCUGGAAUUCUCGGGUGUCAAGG,-0.616
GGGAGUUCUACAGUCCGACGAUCCAAGUCCUGUGCUACACAUCGUAUGUACCGAAUCGGUUUGGGUUUGGGUUUGGGGAAAGUAUUAUGUUACGCCGUUCGGAUCUGCACUUCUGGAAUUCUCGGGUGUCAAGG,-0.714

# Series 2
# Target: RING finger protein unkempt homolog, zinc fingers 1-6, GST-SBP tag (UNK, Homo sapiens, UniProt Q9C0B0, residues 30-357)
# UniProt Q9C0B0, sequence (30-357, looked up): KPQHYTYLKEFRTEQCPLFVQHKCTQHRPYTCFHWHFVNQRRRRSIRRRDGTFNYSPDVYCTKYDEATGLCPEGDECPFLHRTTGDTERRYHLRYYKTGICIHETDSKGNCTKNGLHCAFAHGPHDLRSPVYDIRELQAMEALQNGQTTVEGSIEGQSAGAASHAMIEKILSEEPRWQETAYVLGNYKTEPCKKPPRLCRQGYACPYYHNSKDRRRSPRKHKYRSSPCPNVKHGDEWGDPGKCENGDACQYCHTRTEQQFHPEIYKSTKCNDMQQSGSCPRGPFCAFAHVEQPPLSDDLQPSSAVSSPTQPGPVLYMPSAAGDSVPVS
# Technique: RNA Bind-n-Seq
# Molecule type: RNA
# Matrix: in vitro
# Concentration: not given
# Notes: RNA with constant flanks, human-mouse chimeric sites, ends assumed
# Baseline: input RNA pool
# Direction: higher = stronger binding
Oligonucleotide,bound/input enrichment
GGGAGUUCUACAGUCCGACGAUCAAAGUGAUGACUAUGUUUGUCCAACGACAGGUAUUUUCUGAGAACAAAGAUGAGAUUGCUUUAGUCCUCUAUGGCACAGAUGGCACUGAUAAUGCCCUUGCUGGCAAGGACCAGUAUCAGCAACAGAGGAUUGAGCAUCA,0.138 ratio
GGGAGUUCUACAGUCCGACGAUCUACUCAACUUUCUUUCCACAUUUUGAAUUCCAAGACAUUAUUCCUCCAGAUGACUUUCUAACGAGUGAUGAAGAGCAAGAUUUGGUUUUAUUUGGAACUAUGAGAGGACAAGUUGUUGGACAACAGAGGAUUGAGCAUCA,0.212 ratio
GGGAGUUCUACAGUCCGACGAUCGGGACUGAUUCAUCCCAAGGACAGGCCGCCCAGUCUGAUGCCUGGACUGAUGACAGUAUGGAAGGGCCUAGUCAAAAUUUUGAAGCUGAGUCAAUUCAGGAUGCCAUGAGUAUGGAAGAGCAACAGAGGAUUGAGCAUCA,0.207 ratio
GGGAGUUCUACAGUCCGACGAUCGAUCCACAGUGGUCUGAGGAGCAACUCAUUGCUGCAAAAUUCUGUUUUGCUGGCCUUGUUAUAGGGCAGACUGAAGUGGACAUCAUGAGUCAUGCCACACAGGCUAUUUUUGAAAUUCUGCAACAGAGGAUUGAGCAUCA,0.169 ratio
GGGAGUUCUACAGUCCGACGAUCCGCUGGCGUUGAACUGUGGACUCUGAUGGCCUCCAUCUCUCAGGCACGUGUGCCUUCUCUUAGUCCCUGUUUUCGGGAUGUUAUGAAUCUCAGUACUGUUUGACAGAAGCACCAGCUUUGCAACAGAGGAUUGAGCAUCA,0.215 ratio
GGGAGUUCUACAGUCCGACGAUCGUGACUGACAUUAAAAUUUCCCCUCAGCAAAGAAGUGCAGUAGUCACCAUAAUUCCAUCUGUGGUGAGUGCCAGUCAGAUUGUGGAGCUGGUUCCAGACCUCAGUUUAGACAUGGGAACUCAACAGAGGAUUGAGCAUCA,0.196 ratio
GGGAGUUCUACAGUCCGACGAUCGGAAGUACAAUGAUGGAAAUAGAUGGCGACAAAGGCAAGCAGGGCGGUCCCACCUACUACAUAGACACCAAUGCCCUCCGCGUGCCCAGGGAGAACAUGGAGGCCAUCUCACCACUCAAGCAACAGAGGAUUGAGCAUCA,0.263 ratio
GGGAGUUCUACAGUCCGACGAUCAGAGAUAAGACAUCCAGGAACAUGCGAGGCUCCCGGAUGAAUGGGUUGCCUAGCCCCACUCACAGCGCCCACUGUAGCUUCUACAGAACCAGAACCUUGCAGGCACUGAGUAAUGAGAAGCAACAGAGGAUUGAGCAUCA,0.105 ratio
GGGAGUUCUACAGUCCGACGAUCGUAUACGGUUAUCGAGGAAAGGACUGUAGAGCUAAUGUAUACCUGCUUCCCACAGGGGAGAUAGUUUAUUUUAUCGCCUCAGUGGUAGUACUAUUUAAUUAUGAGGAGAGGACUCAGCGACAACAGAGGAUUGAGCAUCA,3.73 ratio
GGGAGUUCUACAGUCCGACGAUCUCUUUAAAAAAAAAAUUACCUUUUCUGACAGUGCUUUCCCUCCCAUAGAUCCACGUUCAAGCUCAAAGGCCAAAACUUUUGCACGGAGCUCAAACAUCUGAUGAAGAUUUUUGAGACAGACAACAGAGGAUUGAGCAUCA,1.59 ratio
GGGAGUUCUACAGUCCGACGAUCAAUGUGGAACUAAGUUCCUUGGCCCGGCUUCCCAGCUUGAAUAAACUCCGGAAGUUGGAACUUAGUGACAAUAUAAUUUCUGGAGGCUUGGAAGUCCUGGCAGAGAAAUGUCCAAAUCUUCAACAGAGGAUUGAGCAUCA,0.255 ratio

# Series 3
# Target: Interferon regulatory factor 7, full length, phosphomimetic (IRF7, Homo sapiens, UniProt Q92985, residues 1-503, S471D/S472D/S475D/S476D/S477D/S483D/S484D/S487D)
# UniProt Q92985, sequence (whole entry, unmodified, looked up): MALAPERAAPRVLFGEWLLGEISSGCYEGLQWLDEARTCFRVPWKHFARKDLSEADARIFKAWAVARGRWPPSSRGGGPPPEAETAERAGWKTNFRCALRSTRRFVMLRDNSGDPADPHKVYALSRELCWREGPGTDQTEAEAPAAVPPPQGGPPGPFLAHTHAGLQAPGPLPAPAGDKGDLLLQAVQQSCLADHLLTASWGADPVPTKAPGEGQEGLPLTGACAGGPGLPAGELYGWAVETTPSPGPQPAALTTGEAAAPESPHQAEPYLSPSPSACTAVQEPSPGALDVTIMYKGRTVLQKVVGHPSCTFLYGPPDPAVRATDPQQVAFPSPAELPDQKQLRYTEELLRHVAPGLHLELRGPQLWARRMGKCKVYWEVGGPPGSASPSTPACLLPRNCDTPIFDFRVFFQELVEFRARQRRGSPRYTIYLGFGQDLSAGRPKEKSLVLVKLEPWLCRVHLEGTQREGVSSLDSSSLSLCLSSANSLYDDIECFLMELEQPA
# Technique: protein-binding microarray
# Molecule type: double-stranded DNA, one strand shown
# Matrix: in vitro
# Concentration: 2200 nM top
# Notes: 60-bp whole probe
# Together with: salmon DNA 0.4 mg/ml
# Baseline: random background probes
# Direction: higher = stronger binding
# All sequences stand within: GCCTAGCAC … GTCTTGATTCGCTTGACGCTGCTG
Oligonucleotide,fitted relative affinity
TTAGATCTCAGGCTCGATTAGTGCTAG,-0.112 z-score
GTGTTATTAAAACTTCATGAAGTGCTA,0.0473 z-score
TTAGGGTTCGGTCTCGGTTAGTGCTAG,0.772 z-score
GAGGGTCTCCTTCTCCTGACGTGCTAG,0.247 z-score
TTAGGTTCCGGTTTGGGTTAGTGCTAG,4.27 z-score
TCATTTTTTGGTTTCTGACTGTGCTAG,4.08 z-score
GACCATCTCATATAAATAGGCGTGCTA,-0.0273 z-score
GACGGTCTCCTTTTCCTGAAGTGCTAG,1.3 z-score
TTAGGTATCGACACTGGGTTAGTGCTA,-0.0713 z-score
GACGATTTCAGTTTCGAGAAGTGCTAG,3.77 z-score
ACAGCCTTTCTAACTTGAAAGTGCTAG,0.538 z-score
TCACATTTAATTATATGACTGTGCTAG,0.511 z-score
TTAGGTATCCTTTCCCTTTAGTGCTAG,2.68 z-score
GACGGTATCGGACTTGGGACGTGCTAG,-0.305 z-score
TTAGGACTGCTTCTCCGTTAGTGCTAG,0.732 z-score
TCAATTTTGTGTCTGGGACTGTGCTAG,0.776 z-score
GACGATCTCAGTCTCGAAACGTGCTAG,0.505 z-score
CACGATTTCAGTCTCGAGACGTGCTAG,1.37 z-score
GTATTTGTCCCTATTTAAGAGTGCTAG,2.01 z-score
TCACTAGTGTTTTTCTCACTGTGCTAG,1.1 z-score
GACGGTATCGACCCTGGGGACGTGCTA,-0.727 z-score
TCATAAATATCTTTGTTACTGTGCTAG,0.217 z-score
TCACCTCTAGGAATGTAACTGTGCTAG,0.633 z-score

# Series 4
# Target: RNA binding protein fox-1 homolog 2, RRM domain, GST-SBP tag (RBFOX2, Homo sapiens, UniProt O43251-10, residues 100-194)
# Technique: RNA Bind-n-Seq
# Molecule type: RNA
# Matrix: in vitro
# Concentration: 365 nM
# Notes: natural RNA segment, single round, ends assumed
# Baseline: no-protein control
# Direction: higher = stronger binding
Oligonucleotide,RBNS enrichment (R)
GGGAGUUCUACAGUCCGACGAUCUGAGUGAUUUGGACGACCUGUUAGGGUCUCAGUAUGGAAGGAUUUGUAGUGUUUUUAGUGUUCAUUCAUCCUAUAUUUUUAUUCUCAGAUUCAAAGAAAGAGCAACUACUUGGAAUUCUCGGGUGCCAA,0.83
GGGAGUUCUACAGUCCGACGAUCUUUUUUUAAUCCUCCCAGUACUCCAGAGACAGAGACAGACCAGUCUCUGAGUUCAAGGCCAGCCUGAUCUUCAUAAUGAGCUCCAGACAACCAGGGCUAUCUAAGAAGCCUGGAAUUCUCGGGUGCCAA,0.456
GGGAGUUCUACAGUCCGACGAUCGAUAAUUCCUUCUAUGCGCAGUUUAGACAUCUCUGUUGGGCUUUUUUUUUAAAUUUUUAUUUUAAAAGGCACAAAACUAUAGAUAUUAGUUGAAUGUUGAGGCUUUAACUUGGAAUUCUCGGGUGCCAA,0.569
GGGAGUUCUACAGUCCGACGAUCUUGAUGGCGAGGGGAACACUGAUGAAUGAGAGGUCCACCAGCCCACUUCCAAGAAACAGUUCUGGCCCAAACCAGACUAUCCCUUCCCCAACAGUUCUCACUGCCUGGCCUGGAAUUCUCGGGUGCCAA,0.403
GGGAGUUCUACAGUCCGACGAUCCUUCAAAAUAUUGAACUGCAGGUCCCAAGAUGCAUUUCAGGAUUUAAGACAGGUGCACUAAUGAUAACCAUUCCUUCACCAAGUAGCAACAUUCUUGCCAGAGUUCUUGGUGGAAUUCUCGGGUGCCAA,1.84
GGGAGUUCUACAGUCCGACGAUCCUCUGUCUCACUCCACCUCCUUAUCUGCCAGCAUUGCUGUUUCCUGCAAAGGAUUAUGGGAAACUCCAGGACUCUUCUACCCAGCUCCUGCCUGCAAAGGUUCCCUGCAUUGGAAUUCUCGGGUGCCAA,0.394
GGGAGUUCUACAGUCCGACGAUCUUUUAAGAUCAUUAUUUGAUAGCUGUAGCAUGAAGCAGAGGUUGAUGAUGCCCAUAAUUGCAAGACUAUUCCUGUAAAAAUAACAAUUAUUGGGUAAUAACUUCAAGAGGUGGAAUUCUCGGGUGCCAA,12.2
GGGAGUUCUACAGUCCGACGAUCAAUCUCCCUCUAUUUUUUUAAAAUCACUAACAUUAUAUUGCAAUGAGAGAAAUUUUAAAAAGUCUCUAUUUAAAUUCUUUUUUUAAAUUUCUCUUCAGUUGGUGUGUUUCUGGAAUUCUCGGGUGCCAA,1.78
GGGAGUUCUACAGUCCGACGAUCCAAGGGUGCCACGGGCUCUGAAGCUAACGGGCAUCCCACGCGGUCAGGUGUAGUAGUGAACUUGAACAUUUGAAUGGGAAGGAAGCACUUCGCACAAUGGCAUUUGAACAUGGAAUUCUCGGGUGCCAA,0.417

# Repeated from above (series 3):
Oligonucleotide,fitted relative affinity
TCATAAATATCTTTGTTACTGTGCTAG,0.217 z-score
GACGGTATCGGACTTGGGACGTGCTAG,-0.305 z-score
GACGGTCTCCTTTTCCTGAAGTGCTAG,1.3 z-score
